Measurements gathered from unrelated publications.
Protocols differ between the studies behind these lines. Numbers after ± are the reported error. Values after ≈ are worked out from the molar mass of the structure shown.

SMILES | cell line | assay | system | conditions | scale | measurement | result
COC1CCC2(C)C3=C(CCC2C1(C)C)C1(C)CCC(C(C)CCC=C(C)C)C1(C)CC3 (stereo not drawn) | SK-LU-1 | cell growth or viability, SRB |  | 50 µM |  | inhibition | 21.6%
CC(C)C[C@H](NC(=O)[C@H](C)NC(=O)[C@H](CCCCN)NC(=O)[C@H](C)NC(=O)[C@H](CCCNC(=N)N)NC(=O)[C@H](C)NC(=O)[C@H](CCC(N)=O)NC(=O)[C@H](CCCNC(=N)N)NC(=O)[C@H](C)NC(=O)[C@H](C)NC(=O)[C@H](C)NC(=O)[C@H](CCCNC(=N)N)NC(=O)[C@H](C)NC(=O)[C@H](Cc1ccc(O)cc1)NC(=O)CCNC(=S)Nc1ccc2c(c1)C(=O)OC21c2ccc(O)cc2Oc2cc(O)ccc21)C(=O)N[C@@H](C)C(=O)N[C@@H](CCCNC(=N)N)C(=O)N[C@@H](CCC(N)=O)C(=O)N[C@@H](CC(C)C)C(=O)NCC(=O)N[C@H](C(=O)N[C@@H](C)C(=O)N[C@@H](C)C(N)=O)C(C)C | mesothelial cells | flow cytometry |  | concentration not given, 1 h, added: 10 mM methyl-beta-cyclodextrin |  | uptake | inhibited
C[C@@H](CNCc1cc(Cl)cc(Cl)c1)CNc1nc2cccnc2[nH]1 | CRL-8155 and HepG2 | cytotoxicity |  |  |  | EC50 | ≥ 20 µM
COc1ccc(-c2nc(-c3ccccc3OC)[nH]c2-c2ccc(OC)cc2)cc1 | MRC-5 | cytotoxicity, resazurin |  | 7 days, 5% fetal calf serum |  | EC50 | > 64 µM
O=C(Cn1cccc([N+](=O)[O-])c1=O)c1c[nH]c2ccccc12 | BRCA-proficient human cells |  |  | 100 µM, 72 h, pre-treatment |  | clonogenic survival | toxic
CCn1c(SC(C)C(=O)NC2CCCCC2)nnc1C1CCN(C(=O)Nc2ccccc2)CC1 (stereo not drawn) | human blood mononuclear cells | MTT |  | 0.25 mM, 2 h, pH 7.4 |  | viability | 83.8 ± 2.9%
Cc1c(C)c(C)[c-](C)c1C.[C-]#[O+].[C-]#[O+].[C-]#[O+].[Cl-].[Cl-].[Cl-].[Ir+3].[Re+].c1cnc(-c2ncccn2)nc1 | MDA-MB-468 | annexin V/PI |  | 25 µM, 48 h |  | viable cells | 68.2%
O=C(CNc1nc(NNC(=O)c2ccc(Nc3nc(Nc4ccc(C(=O)NNc5nc(NCC(=O)NO)nc(N6CCCCC6)n5)cc4)nc(Nc4ccc(C(=O)NNc5nc(NCC(=O)NO)nc(N6CCCCC6)n5)cc4)n3)cc2)nc(N2CCCCC2)n1)NO | WI-38 cells | cell viability, MTT |  | 72 h |  | maximum non-toxic concentration | 15 ± 0.3 nM
Clc1cc(Cl)c2c(c1)[C@H](NCCCNc1nc3cccnc3[nH]1)CCO2 | CRL-8155 and HepG2 | cytotoxicity |  |  |  | EC50 | ≥ 20 µM
COC(=O)COc1ccc(NC(=O)C2(c3ccc(Cl)c(Cl)c3)CC2)c(C)c1 | U-937 | LDH release |  | 25 µM, 4 h | relative to: Triton X-100 | cytotoxicity | -1%
Fc1ccc2[nH]c(NCCCNCc3cc(Cl)cc(Cl)c3)nc2c1 | CRL-8155 and HepG2 | cytotoxicity |  |  |  | EC50 | ~10 µM
CC(=O)Nc1ccc(/C=C/c2nc3ccc(Br)cc3nc2/C=C/c2ccc(NC(C)=O)cc2)cc1 | Hs68 | MTT |  | concentration not given, 72 h | relative to: 5-fluorouracil | cytotoxicity fold lower | ~3 fold
Fc1ccc2nc(NCCCNCc3cc(Cl)cc(Cl)c3)[nH]c2n1 | CRL-8155 and HepG2 | cytotoxicity |  |  |  | EC50 | ≥ 20 µM
CC(C)=CCC[C@@H](C)[C@@H]1CC[C@]2(C)C3=C(CC[C@@]12C)[C@@]1(C)CC[C@H](OC(=O)c2ccccc2)C(C)(C)[C@@H]1CC3 | SK-LU-1 | cell growth or viability, SRB |  | 50 µM |  | inhibition | 10.9%
CN(C)c1cc(CNC2CCCC2)c(O)c2c1C[C@H]1C[C@H]3[C@H](N(C)C)C(O)=C(C(N)=O)C(=O)[C@@]3(O)C(O)=C1C2=O | CHO | cytotoxicity, resazurin |  | 10% fetal calf serum |  | TC50 | > 100 µg/mL
Oc1cccc(-c2cccc(O)n2)n1.[Cl-].[Cl-].[Ru+2].c1cnc2c(c1)c1c(c3cccnc32)OCCO1.c1cnc2c(c1)c1c(c3cccnc32)OCCO1 | MCF-10A | flow cytometry |  | 50 µM, dark, added: deoxyglucose and oligomycin | relative to: no metabolic inhibition | cellular uptake | no effect
CCn1c(SC(C)C(=O)Nc2ccc(C)cc2C)nnc1C1CCN(C(=O)Nc2ccccc2)CC1 (stereo not drawn) | human blood mononuclear cells | MTT |  | 0.25 mM, 2 h, pH 7.4 |  | viability | 86.2 ± 2.7%
CC1=CC2(C)C(=C(C)C3C4CC(C)CC(C)C4C4Oc5ccc(cc5)CC5(O)NC(=O)C(=C(O)C2C43)C5Nc2ncnc3c2ncn3C2OC(CO)C(O)C2O)C1C (stereo not drawn) | NFκB-MDA-MB-231 | NF-κB reporter gene |  |  | relative to: cytotoxicity IC50 over NF-κB IC50 | selectivity ratio | ~3
CCn1c(SC(C)C(=O)Nc2ccc(C)c(C)c2)nnc1C1CCN(C(=O)Nc2ccccc2)CC1 (stereo not drawn) | human blood mononuclear cells | MTT |  | 0.25 mM, 2 h, pH 7.4 |  | viability | 79.3 ± 2.9%
CC1=NNC(c2cn(CC(=O)Nc3nc(-c4ccccc4)cs3)nn2)C1 (stereo not drawn) | WI-38 | MTT |  | 72 h, 100% viability, 10% FBS |  | safe concentration | 187 ± 8 nM

SMILES | cell line | assay | system | conditions | scale | measurement | result
O=C(O)CNc1nc(Cl)nc(NNC(=O)c2ccc(Nc3nc(Nc4ccc(C(=O)NNc5nc(Cl)nc(NCC(=O)O)n5)cc4)nc(Nc4ccc(C(=O)NNc5nc(Cl)nc(NCC(=O)O)n5)cc4)n3)cc2)n1 | WI-38 cells | cell viability, MTT |  | 72 h |  | maximum non-toxic concentration | 17.1 nM
O=C(NCCCNc1n[n+]([O-])c2ccccc2[n+]1[O-])C(F)(F)F | HCT-116 |  |  |  | relative to: normoxic IC50 over hypoxic IC50 | hypoxic cytotoxicity ratio | 1.4
O=C(O)CNc1nc(NNC(=O)c2ccc(Nc3nc(Nc4ccc(C(=O)NNc5nc(NCC(=O)O)nc(N6CCCCC6)n5)cc4)nc(Nc4ccc(C(=O)NNc5nc(NCC(=O)O)nc(N6CCCCC6)n5)cc4)n3)cc2)nc(N2CCCCC2)n1 | WI-38 cells | cell viability, MTT |  | 72 h |  | maximum non-toxic concentration | 1 ± 0.1 nM
CN(C)c1cc(CNCc2ccccc2)c(O)c2c1C[C@H]1C[C@H]3[C@H](N(C)C)C(O)=C(C(N)=O)C(=O)[C@@]3(O)C(O)=C1C2=O | CHO | cytotoxicity, resazurin |  | 10% fetal calf serum |  | TC50 | 54 µg/mL (≈ 93.6 µM)
COc1cccc2c1C(=O)c1c(O)c3c(c(O)c1C2=O)CC(O)(C(=O)CO)CC3OC1CC(NC(=O)C[C@H](N)C(=O)O)C(O)C(C)O1 (stereo partly drawn) | H1299 (LAT1-negative) | HPLC |  | 50 µg/mL, 2 h, serum-free medium |  | cellular uptake | 0.018 ± 0.0022 µg/mL
C=CCn1c(S)nnc1CSc1ccccc1[N+](=O)[O-] | HCT-116 | MTS |  | 1.6 to 25 µM, 48 h |  | cytotoxicity | not toxic
CC(C)=CCCC(C)C1CCC2(C)C3=C(CCC12C)C1(C)CCC(=O)C(C)(C)C1CC3 (stereo not drawn) | SK-LU-1 | cell growth or viability, SRB |  | 50 µM |  | inhibition | 31.3%
Oc1cc(NCCCNCc2cc(Cl)cc(Cl)c2)nc2ccccc12 | CRL-8155 and HepG2 | cytotoxicity |  |  |  | EC50 | ≥ 20 µM
CC(=O)N[C@H](C(=O)N[C@H](C(=O)N[C@@H](CCCNC(=N)N)C(=O)N1Cc2ccccc2C[C@H]1C(=O)N[C@@H](Cc1ccccc1)C(N)=O)C1CCCCC1)C(C)C | human PBMC | Bio-Plex multiplex, measured: GM-CSF |  | 500 µg/mL, 24 h |  | cytokine level | < 1.3 pg/mL
CCN(CC)C(=O)C(C)Sc1nnc(C2CCN(C(=O)Nc3ccccc3)CC2)n1CC (stereo not drawn) | human blood mononuclear cells | MTT |  | 0.25 mM, 2 h, pH 7.4 |  | viability | 81.3 ± 2.8%
Cc1cnc(Nc2ccc(C3CCN(C)CC3)c(F)c2)nc1Nc1ccc(Cl)c(NS(=O)(=O)C(C)(C)C)c1 | human mesenchymal stem cells | MTS |  | concentration not given, 24 and 48 h |  | cytotoxicity | not toxic
CCC1(C)CCN(Cc2cc(N(C)C)c3c(c2O)C(=O)C2=C(O)[C@]4(O)C(=O)C(C(N)=O)=C(O)[C@@H](N(C)C)[C@@H]4C[C@@H]2C3)CC1 | CHO | cytotoxicity, resazurin |  | 10% fetal calf serum |  | TC50 | > 100 µg/mL
CCn1c(SC(C)C(=O)Nc2ccccc2)nnc1C1CCN(C(=O)Nc2ccccc2)CC1 (stereo not drawn) | human blood mononuclear cells | MTT |  | 0.25 mM, 2 h, pH 7.4 |  | viability | 82.2 ± 2.9%
CN(C)c1cc(CNCCC(C)(C)C)c(O)c2c1C[C@H]1C[C@H]3[C@H](N(C)C)C(O)=C(C(N)=O)C(=O)[C@@]3(O)C(O)=C1C2=O | CHO | cytotoxicity, resazurin |  | 10% fetal calf serum |  | TC50 | > 100 µg/mL
O=C(O)CNc1nc(NNC(=O)c2ccc(Nc3nc(Nc4ccc(C(=O)NNc5nc(NCC(=O)O)nc(N6CCOCC6)n5)cc4)nc(Nc4ccc(C(=O)NNc5nc(NCC(=O)O)nc(N6CCOCC6)n5)cc4)n3)cc2)nc(N2CCOCC2)n1 | WI-38 cells | cell viability, MTT |  | 72 h |  | maximum non-toxic concentration | 1.9 ± 0.2 nM
CCn1c(SC(C)C(=O)Nc2cccc(C)c2C)nnc1C1CCN(C(=O)Nc2ccccc2)CC1 (stereo not drawn) | human blood mononuclear cells | MTT |  | 0.25 mM, 2 h, pH 7.4 |  | viability | 78.6 ± 2.8%
NS(=O)(=O)c1ccc(NC(=O)NN[C@@H]2O[C@H](CO)[C@@H](O)[C@H](O)[C@@H]2O)cc1 | rabbit erythrocytes |  |  | 32 µg/mL, 3 h | relative to: complete lysis | hemolysis | 3.15%
COc1ccc([C@@H]2C3CCCN3[C@@]3(c4ccccc4-c4nc5ccccc5nc43)[C@H]2C(=O)c2nc3ccccc3[nH]2)cc1 (stereo partly drawn) | WI-38 lung fibroblasts | cytotoxicity, MTT | medium with 10% FBS | 72 h, dose at 100% viability |  | EC100 | 0.086 ± 0.003 µM
C=CC(C)(C)c1c(O)cc2c(c1O)C(=O)CC(c1ccccc1)O2 (stereo not drawn) | U-937 | cytotoxicity |  | 24 h |  | EC50 | 185 ± 16.2 µM

Excerpt of the above:
SMILES | cell line | assay | system | conditions | scale | measurement | result
Cc1cnc(Nc2ccc(C3CCN(C)CC3)c(F)c2)nc1Nc1ccc(Cl)c(NS(=O)(=O)C(C)(C)C)c1 | human mesenchymal stem cells | MTS |  | concentration not given, 24 and 48 h |  | cytotoxicity | not toxic
CCC1(C)CCN(Cc2cc(N(C)C)c3c(c2O)C(=O)C2=C(O)[C@]4(O)C(=O)C(C(N)=O)=C(O)[C@@H](N(C)C)[C@@H]4C[C@@H]2C3)CC1 | CHO | cytotoxicity, resazurin |  | 10% fetal calf serum |  | TC50 | > 100 µg/mL
CCn1c(SC(C)C(=O)Nc2ccccc2)nnc1C1CCN(C(=O)Nc2ccccc2)CC1 (stereo not drawn) | human blood mononuclear cells | MTT |  | 0.25 mM, 2 h, pH 7.4 |  | viability | 82.2 ± 2.9%
CN(C)c1cc(CNCCC(C)(C)C)c(O)c2c1C[C@H]1C[C@H]3[C@H](N(C)C)C(O)=C(C(N)=O)C(=O)[C@@]3(O)C(O)=C1C2=O | CHO | cytotoxicity, resazurin |  | 10% fetal calf serum |  | TC50 | > 100 µg/mL
